# Measurements from different studies.
# Parts stem from different laboratories: compare values within a part only. Values joined by “and” are separate records of one study, mostly repeats; a detail may differ.
# UniProt P11229, sequence (whole entry, looked up): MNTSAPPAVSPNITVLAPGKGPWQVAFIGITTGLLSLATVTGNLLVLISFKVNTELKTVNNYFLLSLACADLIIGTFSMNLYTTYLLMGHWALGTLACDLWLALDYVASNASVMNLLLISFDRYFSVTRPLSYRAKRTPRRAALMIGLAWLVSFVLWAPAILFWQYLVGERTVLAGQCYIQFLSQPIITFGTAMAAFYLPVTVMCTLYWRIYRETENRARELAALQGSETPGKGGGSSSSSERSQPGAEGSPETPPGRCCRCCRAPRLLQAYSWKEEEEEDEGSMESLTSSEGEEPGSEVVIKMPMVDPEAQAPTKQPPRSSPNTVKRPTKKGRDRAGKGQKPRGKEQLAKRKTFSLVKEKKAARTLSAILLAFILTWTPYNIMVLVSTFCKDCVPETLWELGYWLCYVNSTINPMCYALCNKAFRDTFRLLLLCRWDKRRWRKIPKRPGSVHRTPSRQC
# UniProt P41143, sequence (whole entry, looked up): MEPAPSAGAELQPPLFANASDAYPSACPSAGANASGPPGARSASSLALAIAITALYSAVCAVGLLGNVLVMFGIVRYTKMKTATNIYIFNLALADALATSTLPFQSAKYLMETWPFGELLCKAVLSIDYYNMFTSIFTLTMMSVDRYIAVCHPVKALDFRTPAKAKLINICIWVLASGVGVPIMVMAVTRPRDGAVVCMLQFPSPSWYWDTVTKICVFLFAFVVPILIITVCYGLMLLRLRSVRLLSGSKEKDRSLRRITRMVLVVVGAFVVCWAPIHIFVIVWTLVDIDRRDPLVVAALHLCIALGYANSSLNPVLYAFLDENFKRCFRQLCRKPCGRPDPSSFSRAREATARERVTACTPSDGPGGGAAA
# UniProt P28335, sequence (whole entry, looked up): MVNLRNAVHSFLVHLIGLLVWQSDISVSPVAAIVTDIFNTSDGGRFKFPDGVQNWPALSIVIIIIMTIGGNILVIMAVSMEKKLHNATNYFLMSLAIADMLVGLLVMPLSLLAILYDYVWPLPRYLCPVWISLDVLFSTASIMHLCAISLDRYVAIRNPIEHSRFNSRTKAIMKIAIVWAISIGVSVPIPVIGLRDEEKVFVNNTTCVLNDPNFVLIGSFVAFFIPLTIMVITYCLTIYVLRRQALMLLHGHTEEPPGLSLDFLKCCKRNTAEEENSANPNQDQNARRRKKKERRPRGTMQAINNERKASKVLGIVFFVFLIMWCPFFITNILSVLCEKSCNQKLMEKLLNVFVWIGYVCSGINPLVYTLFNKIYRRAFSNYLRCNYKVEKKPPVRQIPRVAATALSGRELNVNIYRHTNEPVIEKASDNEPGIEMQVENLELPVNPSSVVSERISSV

# Study 1
# Compound: CO[C@@H](C)c1c(Nc2ccc([C@@H](N(C)C(=O)C3CCS(=O)(=O)CC3)C(F)(F)F)cc2)cnc2cc(Cl)nn12
# Observed: binding
# Technique: radioligand binding
# Tested at: 10 µM
target,inhibition [%]
"CHRM1 (Homo sapiens, UniProt P11229)",-2.39
"HTR2C (Homo sapiens, UniProt P28335)",3.25
"OPRD1 (Homo sapiens, UniProt P41143)",-31.4

# Study 2
# Compound: CCOc1ccc(Nc2c3c(nc4ccccc24)CCC3)cc1
# Organism: Leishmania donovani
observed,cells,strain,sample,tested at,setting,inhibition
,THP-1 intracellular amastigotes,DD8 resistant line,,4 µM,resistance confirmation,41%
parasite growth,,DD8 amphotericin B-resistant,intracellular amastigotes,0.08 µM,,1% and 12% and 14% and 2% and 9%
parasite growth,,DD8 amphotericin B-resistant,promastigotes,1.66 µM,,41% and 52% and 46% and 42%
parasite growth,,DD8 amphotericin B-resistant,promastigotes,0.66 µM,,17% and 14% and 12% and 15% and 18% and 11%

# Other studies, line by line
# Tested at: 10 µM
Compound,cell line,test,test system,setting,scale,measurement,value
COC[C@@H]1CN(C(=O)CC(C)C)C[C@H]1c1nc(C)no1,HEK-293T-ACE2-TMPRSS2,cell count,,,,viability,99%
CN(C)C(=O)Oc1cccc([N+](C)(C)C)c1,HEK-293T/ACE2,"pseudovirus infection, counter-screen",VSV pseudotyped with VSV-G,16 h,relative to: vehicle-treated,GFP-positive cells,106%
c1ccc(-c2cnc3ccccc3c2)c(OCCn2ccnc2)c1,HEK-293T-ACE2-TMPRSS2,cell count,,,,viability,110%
Cc1ccccc1N1C(=O)c2cc(S(N)(=O)=O)c(Cl)cc2NC1C (centres unmarked),HEK-293T/ACE2,"pseudovirus infection, counter-screen",VSV pseudotyped with VSV-G,16 h,relative to: vehicle-treated,GFP-positive cells,118%

# Repeated from above (study 2):
observed,cells,strain,sample,tested at,setting,inhibition
,THP-1 intracellular amastigotes,DD8 resistant line,,4 µM,resistance confirmation,41%
